Published values from different studies.
Numbered parts are unrelated; each lists some results of a single study.

Sample 1
Target: Histone acetyltransferase KAT6A, winged helix 2, GST fusion (KAT6A, Homo sapiens, UniProt Q92794, residues 85-181)
Technique: protein binding microarray
Form: double-stranded DNA, one strand shown
Sample: in vitro
Tested at: not given
Setting: 8-mer, flanks averaged, mean of 2 arrays, mostly near background
Reference: not given
Direction: higher = stronger binding
Quantity: E-score
Construct (chain): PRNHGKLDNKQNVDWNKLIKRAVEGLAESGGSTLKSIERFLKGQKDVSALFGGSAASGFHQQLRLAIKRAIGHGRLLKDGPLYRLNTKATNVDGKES
AGGTGGAA: 0.0349
GAATAGGC: 0.0229
ATCTGTGG: -0.29
CACAACAC: -0.0601
AGATGCCT: -0.00217
AAGTGGGG: -0.194
CGTGTTCC: 0.0718
ACAACAAA: 0.103
AGCAGGTA: -0.106
GCTTGCTA: 0.008
CTTATAGA: 0.0148
CTTGCTAA: 0.143
AATACCCA: -0.0281
GGCCAGGA: -0.0239
ACTAGTGC: -0.0146
GACAGGAA: 0.0395
CAAAGGAA: -0.0328
CCTAAGAA: 0.063
CCTGAAGC: -0.0166
ACGGGTGC: 0.0187
AATGGTCG: -0.0359
GGATTAAC: -0.0259
AATGCGTC: -0.0623
CATAAAGA: -5e-06
GATGGAAA: -0.00403

Sample 2
Target: RNA binding protein fox-1 homolog 2, RRM domain, GST-SBP tag (RBFOX2, Homo sapiens, UniProt O43251-10, residues 100-194)
Technique: RNA Bind-n-Seq
Form: RNA
Sample: in vitro
Tested at: 365 nM
Setting: natural RNA segment, single round, ends assumed
Reference: no-protein control
Direction: higher = stronger binding
Quantity: RBNS enrichment (R)
All sequences stand within: GGGAGUUCUACAGUCCGACGAUC … UGGAAUUCUCGGGUGCCAA
Target sequence (chain): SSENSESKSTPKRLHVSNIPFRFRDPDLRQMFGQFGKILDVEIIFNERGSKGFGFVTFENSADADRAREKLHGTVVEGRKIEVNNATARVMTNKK
GCUGUUAACAAACAUACAACUUUUUUCUAGGGCUUUAAGGGUGGUCAUUUUUUUCAAGUUCUCUCAAGUGUCCCAAAUCAGGGUAGCAAUCUUGUUGCCACAUGUGCAGC: 0.474
UGUACUUAAGUGCUGAUGACUGUUAGCCAGUUUACAACUUUUUACCAUCGAUGUACACAUUUGAUAUUUGUGCAGUAAAUAGACUGUACCUAUAAAAAAUUUUAUUGAUG: 0.407
CUGGAAGAUGCACUUGCCCCGACAGCUGGGCAGCACGGCUGUCCUCUGCAGAGACUGCCUGGUCCUCAUUGUACUUUGGUGGCUCAACUGAAUAAAGCCUUGUGGGAAGC: 0.979
GUUCUAAGACUAAUAUUUUUAGAUCUUUUUACUUCACCUCAUACUUAUCACCAAUGUAUAUCUCCAUUUAUUCAAUAACUUACUGGGGUAAAAUAACAGCAAUAAACCUA: 0.406
CAUUGUAAGAUUGUGAAGAUAUAUAAAAUUGAUGAAUUAAGAGAAAUUAUGCCACUUUCCUAUAGUUUCUGUGUUCUGUUUAUUGUAUGGUGUAUUCACUCUUGGAAAAU: 0.488
CUCUGAGCCGUGAUGCCAAAGGUUGCGACUCCUGACUCUGGAUAAUUUUUAGUUGCUCUUUGUUUUCUCUGCCGCACUUUCCUGGUGCCCCACGCUUUUCUCUCUUCCUU: 1.12
CCUUGUUUUCCUUGGAAAUUUUGCAAAAUGUUAUGUGAAACAACUUCUAGGGUAAAAACAGCUAUUACUAAUCUCUGCACUGGUCAUUUGAGAAUUUUUUUUGUACAGCA: 2.09
UAGCUGGGAAAACACUAGAGCUGCAGGUACCAGCCACUCGGCCCCAGGGGGUUAUGGCCACAGAGGGAUAGGCACAGUCUCCACCACCCUGGAGCCAAGGGUCUUUCACA: 0.569
GUUUGCCUAGGUACAGAAUUAAUAGCCCUUAGCAACGACUGCUGCUGGUGUGUAUUUUUGUAAAUGUUAUGCACUCUGAAAGGAAAACACACAAAAGAAGAGAUUUUGUC: 0.593
CUGGCCCCCAGCCCCCAGCAAGCCUGAGCCCGGGAAGAACCAGAGGCCCUCCCGAGAGACCCAGUCACACGUCUCUGCUUUAAGCCUUAGCCAGCUAGUGACGAGUACAA: 0.335
GUUUUAUUUUUAUCCACUGUUUUGUUGUUGUUUUUUUAUAUUUUCUACAUAUCACGUGUGAGACAACUUCUUUCACAUCUCCAUAGUGCCCAGCAAAUUUGAGGCCUAUG: 1.05
AAGACUAGACCAAUUGUCAUGCUUGACACAACUGCUGUGGCUGGUUGGUGCUUUGUUUAUGGUAGUAGUUUUUCUGUAACACAGAAUAUAGGAUAAGAAAUAAGAAUAAA: 0.511

Sample 3
Target: RING finger protein unkempt homolog, zinc fingers 1-6, GST-SBP tag (UNK, Homo sapiens, UniProt Q9C0B0, residues 30-357)
Chain of UniProt Q9C0B0 (30-357, looked up): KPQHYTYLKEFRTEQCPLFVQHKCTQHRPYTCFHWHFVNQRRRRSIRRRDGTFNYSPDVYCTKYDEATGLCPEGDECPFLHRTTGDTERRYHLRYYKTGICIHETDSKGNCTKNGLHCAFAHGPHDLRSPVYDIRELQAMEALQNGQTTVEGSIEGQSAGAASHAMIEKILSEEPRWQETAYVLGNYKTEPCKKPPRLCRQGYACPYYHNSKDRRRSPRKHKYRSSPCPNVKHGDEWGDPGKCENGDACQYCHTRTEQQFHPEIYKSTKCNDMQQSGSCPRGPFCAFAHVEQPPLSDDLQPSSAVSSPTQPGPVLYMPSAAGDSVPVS
Technique: RNA Bind-n-Seq
Form: RNA
Sample: in vitro
Tested at: not given
Setting: RNA with constant flanks, human and mouse sites, ends assumed
Reference: input RNA pool
Direction: higher = stronger binding
Quantity: bound/input enrichment
All sequences stand within: GGGAGUUCUACAGUCCGACGAUC … CAACAGAGGAUUGAGCAUCA
GGAUUCUAUGAGUUUCUAAAUUGGUUUGAUGAAAGAGCAUGGUACCCACUGGGAAGAAUAGUGGGUGGCACCGUUUACCCAGGGUUGAUGAUAACAGCUGGCCUUAUUCAUUGGAUUUUA: 0.221 ratio
GGCCAGGAACAGUCUUCACGGGGACAAAGAAUUUUAUCUAUUCCAAUUUGGCCCCCAAACCUAGGCAUCUCUCAGAACUGUGUUUAUGAGGCACAGCAGGUUCCCAAAGUAGAAAAAACA: 0.865 ratio
AUCAGAGAGUCUGGCAAAGCAGACAGGGAUGGUGAUAAGAUGGCUCCUUCAGUUGAAAAAAAGAUUGCAGAGCUUGAAAUGGGACUCCUCCACCUGCAGCAGAACAUUGAGAUCCCAGAG: 0.145 ratio
UUUGAGUCACAUAAGGAUGAAAUAUUCCAGGUUCAGUGGUCACCUCACAAUGAGACUAUUUUAGCUUCCAGUGGUACUGAUCGCAGACUGAAUGUCUGGGAUUUAAGUAAAAUUGGAGAG: 0.152 ratio
UGUCUGGAGGCGAGGCGUCCCAUUACAGAGGAAGGAGCUCCCUAUAUAAGCCUGCCAAAGCUGGCUGCUCCGGCCACAGCCUGCCUACUGUCACGCGUCUCUCCCGCGCGCAGACACACA: 0.432 ratio
UCGUCGCUGAUGCUUGCUCUGUCAAGGCACAGCCUAUUGUCUCCUUUGCUCAGUGUGACAUCAUUCAGACGCUUCUACAGAGGUGACAGCCCAACAGAUUCCCAAAAGGACAUGAUUGAA: 0.129 ratio
AACCUCACAGAUGAAACAGGAGUAUCUGCUGUUCAGUUUGGAAACUCCUCUACGUCAGUAUUAGCUACGUUAGCUGCCUUAGCUGAAGCUUCUGCCCCAUUGUCCAAUUCUUCAGAAACU: 0.218 ratio
CUAAAAAAGAGAAUAACAUGAAAACGCCCAGGGUUACUUGAAUGUUUUUAUAAGAUAGGAAUAUAUGUCUUCACCAUGGGGGGGGUCUCGAUUUCACUAACGUUGUAUAUGAAAAUGUCU: 0.642 ratio
AAUAUUAAAAAGUCUUCAGGGGCUCCACCUUCAAUGCACAGGGAGGACACCGGUCAGCAUCGGGGAGUCAGCUGCUCUUACGUUUUCAGUGCUGUGUAUCUGAGCCUUGAACGAGUCUCA: 0.201 ratio
CUGAAGGAAACAGCAUUUAAAUUUAAAGCCCUGAAGAAGGUUGCACAGUUGGCAGUUAUAAAUAGCCUAGAAAAGGCUUUUUGGAACUGGGUAGAAAAUUAUCCGGAUGAAUUUACAAAG: 0.34 ratio
AUGAUGAAGCUCUCAGAAGAAAACCGACACCUGAGAGAUGAAGGCCUAAGGCUCAGAAAGGUAGCACAUUCGGAUAAACCUGGAUCCACCUCAGCCGUGUCCUUCAGAGAUAAUGUCACC: 0.107 ratio

Sample 4
Target: Interferon regulatory factor 7, full length, phosphomimetic (IRF7, Homo sapiens, UniProt Q92985, residues 1-503, S471D/S472D/S475D/S476D/S477D/S483D/S484D/S487D)
Chain of UniProt Q92985 (whole entry, unmodified, looked up): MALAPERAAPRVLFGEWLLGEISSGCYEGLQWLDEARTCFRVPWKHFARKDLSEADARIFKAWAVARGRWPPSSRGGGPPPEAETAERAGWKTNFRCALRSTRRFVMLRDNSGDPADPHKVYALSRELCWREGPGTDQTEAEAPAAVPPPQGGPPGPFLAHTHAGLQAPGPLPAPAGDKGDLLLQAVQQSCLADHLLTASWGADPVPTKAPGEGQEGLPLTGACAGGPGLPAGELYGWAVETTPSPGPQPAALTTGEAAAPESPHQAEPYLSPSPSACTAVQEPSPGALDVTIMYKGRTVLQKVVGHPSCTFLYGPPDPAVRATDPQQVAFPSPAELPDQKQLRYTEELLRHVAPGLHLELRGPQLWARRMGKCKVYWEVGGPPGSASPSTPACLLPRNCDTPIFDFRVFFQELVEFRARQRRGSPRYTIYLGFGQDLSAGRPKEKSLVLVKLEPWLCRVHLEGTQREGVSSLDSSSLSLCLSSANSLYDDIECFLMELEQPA
Technique: protein-binding microarray
Form: double-stranded DNA, one strand shown
Sample: in vitro
Tested at: 2200 nM top
Setting: 60-bp whole probe
With: salmon DNA 0.4 mg/ml
Reference: random background probes
Direction: higher = stronger binding
Quantity: fitted relative affinity
All sequences stand within: GCCTAGCAC … GTCTTGATTCGCTTGACGCTGCTG
TTAAATTTCGGGACTGGATTAGTGCTA: 0.906 z-score
TTAGATTTCGGGACTGGTTTAGTGCTA: 1.12 z-score
GACGGTATCGACTTGCGGGACGTGCTA: 0.397 z-score
TTAGGTTTCGGGTGTCGGTTAGTGCTA: 4.79 z-score
TTAGGACTCGGTTTCGGTTAGTGCTAG: 7.3 z-score
GACGATATCGGGTTGCGAGACGTGCTA: 0.582 z-score
TTAGCACTGGACTTTCGGTTAGTGCTA: 4.95 z-score
TCATACTTCACTCTCTGACTGTGCTAG: 1.54 z-score
CTAGATCTCAGTCTCGATTAGTGCTAG: 0.742 z-score
ATGGAAATCTCAATGGGTTAGTGCTAG: -0.138 z-score
GACGATATCGGGTTTCGTGACGTGCTA: 1.33 z-score
GACGAACTGAGTCTCGATACGTGCTAG: 0.115 z-score
GACGGACTGGACAATGGGGACGTGCTA: -0.875 z-score
CTCTGGGGAGATCAGCGCATGTGCTAG: -0.916 z-score
TTAGAACTGGGGACTGGAGTAGTGCTA: -0.527 z-score
GACGGTAGCGACACTGGGGACGTGCTA: -0.732 z-score
TTAGGACTGGGTATCGCTTAGTGCTAG: -0.32 z-score
ATAGGTTTCCTTTCCCTTTAGTGCTAG: 5.4 z-score
TTAGGTATCGACACTGAGTTAGTGCTA: -0.194 z-score
TTAGGAGTGCTTATCCTTTAGTGCTAG: -0.0374 z-score
AACGATTTCAGTATCGAGACGTGCTAG: 0.698 z-score
TTAGAACTGAGTCTTGATTAGTGCTAG: -0.139 z-score
TCAACTTTCCCCTTCCTACTGTGCTAG: 4.72 z-score
GAGGATCTCAGACTGGAGACGTGCTAG: -0.341 z-score
TTAGGTTTCGACACTAGGTTAGTGCTA: 1.83 z-score

A few entries again (sample 3):
GGAUUCUAUGAGUUUCUAAAUUGGUUUGAUGAAAGAGCAUGGUACCCACUGGGAAGAAUAGUGGGUGGCACCGUUUACCCAGGGUUGAUGAUAACAGCUGGCCUUAUUCAUUGGAUUUUA: 0.221 ratio
AACCUCACAGAUGAAACAGGAGUAUCUGCUGUUCAGUUUGGAAACUCCUCUACGUCAGUAUUAGCUACGUUAGCUGCCUUAGCUGAAGCUUCUGCCCCAUUGUCCAAUUCUUCAGAAACU: 0.218 ratio
UCGUCGCUGAUGCUUGCUCUGUCAAGGCACAGCCUAUUGUCUCCUUUGCUCAGUGUGACAUCAUUCAGACGCUUCUACAGAGGUGACAGCCCAACAGAUUCCCAAAAGGACAUGAUUGAA: 0.129 ratio
AAUAUUAAAAAGUCUUCAGGGGCUCCACCUUCAAUGCACAGGGAGGACACCGGUCAGCAUCGGGGAGUCAGCUGCUCUUACGUUUUCAGUGCUGUGUAUCUGAGCCUUGAACGAGUCUCA: 0.201 ratio
